Assay results pooled from the literature.
Every numbered part comes from another study and shows a few of its results, in no order.

Block 1
Target: Sal-like protein 4, full length isoform A (SALL4, Homo sapiens, UniProt Q9UJQ4, residues 1-1053)
Sequence of UniProt Q9UJQ4 (whole entry, looked up): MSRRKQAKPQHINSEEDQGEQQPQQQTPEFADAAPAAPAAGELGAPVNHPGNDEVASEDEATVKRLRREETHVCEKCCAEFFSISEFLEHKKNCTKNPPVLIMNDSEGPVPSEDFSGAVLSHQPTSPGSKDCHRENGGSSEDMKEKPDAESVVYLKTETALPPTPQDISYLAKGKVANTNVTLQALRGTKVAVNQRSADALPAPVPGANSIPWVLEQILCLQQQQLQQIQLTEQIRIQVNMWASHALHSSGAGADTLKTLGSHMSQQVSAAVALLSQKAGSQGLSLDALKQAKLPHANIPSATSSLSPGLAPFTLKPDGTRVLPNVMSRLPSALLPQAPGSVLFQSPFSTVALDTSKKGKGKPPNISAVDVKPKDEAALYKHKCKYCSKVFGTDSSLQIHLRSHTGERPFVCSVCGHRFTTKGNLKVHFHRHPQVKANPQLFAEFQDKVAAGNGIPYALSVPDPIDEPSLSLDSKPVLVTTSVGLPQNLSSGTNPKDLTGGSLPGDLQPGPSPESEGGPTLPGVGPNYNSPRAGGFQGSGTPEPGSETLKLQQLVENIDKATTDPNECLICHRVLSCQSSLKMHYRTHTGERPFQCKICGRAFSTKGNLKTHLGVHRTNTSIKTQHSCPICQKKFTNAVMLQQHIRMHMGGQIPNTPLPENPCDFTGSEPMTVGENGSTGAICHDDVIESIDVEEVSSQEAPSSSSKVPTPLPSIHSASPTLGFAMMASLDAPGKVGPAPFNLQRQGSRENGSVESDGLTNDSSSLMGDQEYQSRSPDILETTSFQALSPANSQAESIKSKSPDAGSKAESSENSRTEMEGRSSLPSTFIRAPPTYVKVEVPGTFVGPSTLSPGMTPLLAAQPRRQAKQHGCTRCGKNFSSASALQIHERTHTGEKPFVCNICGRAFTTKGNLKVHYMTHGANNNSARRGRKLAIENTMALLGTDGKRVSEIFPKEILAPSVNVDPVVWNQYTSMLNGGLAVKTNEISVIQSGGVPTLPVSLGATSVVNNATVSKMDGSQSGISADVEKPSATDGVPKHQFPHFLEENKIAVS
Method: universal PBM
Molecule type: double-stranded DNA, one strand shown
Matrix: in vitro
Concentration: 600 nM
Setting: 8-mer, flanks averaged, mean of replicates
Direction: higher = stronger binding
`CCCGAGCG` has an E-score of -0.293.
`AAGTGGAT` gave an E-score of 0.00142.
`GGCGAAAC` gave an E-score of -0.0969.
The E-score of `GTTGTTCA` is reported as 0.0535.
With `AAGAACTA` the E-score was 0.156.
For `AAAGCAGG`, the E-score was 0.0119.
The E-score of `CTACGCGA` is reported as -0.162.
`CCTCCTCA` gave an E-score of -0.216.
`CGCGGGTA` gave an E-score of -0.255.

Block 2
Target: Histone acetyltransferase KAT6A, winged helix 1, GST fusion (KAT6A, Homo sapiens, UniProt Q92794, residues 1-85)
Method: protein binding microarray
Molecule type: double-stranded DNA, one strand shown
Matrix: in vitro
Concentration: not given
Setting: 8-mer, flanks averaged, mean of 2 arrays, mostly near background
Relative to: not given
Direction: higher = stronger binding
Target sequence (chain): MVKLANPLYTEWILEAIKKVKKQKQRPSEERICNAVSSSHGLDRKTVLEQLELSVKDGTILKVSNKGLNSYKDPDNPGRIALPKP
`ATTGGAAG` gave an E-score of -0.127.
The E-score of `ATCTGAAC` is reported as -0.186.
With `GGGGGGTA` the E-score was 0.0687.
The E-score of `CGATGGTA` is reported as 0.0301.
With `CGATCTTC` the E-score was 0.0428.
For `CGTCACAC`, the E-score was 0.0202.
With `CCAGTGCA` the E-score was -0.18.
`CACCGGGA` has an E-score of 0.172.
With `GCGGCAGC` the E-score was 0.353.
`AGCTATGC` has an E-score of 0.053.
The E-score of `GACGAGGC` is reported as -0.0113.
For `AGACGCAA`, the E-score was 0.135.
`TGGACACA` has an E-score of -0.0495.

Block 3
Target: Interferon regulatory factor 5, full length, phosphomimetic (IRF5, Homo sapiens, UniProt Q13568-2, residues 1-514, S451D/S453D/S456D/S462D)
Method: protein-binding microarray
Molecule type: double-stranded DNA, one strand shown
Matrix: in vitro
Concentration: 940 nM top
Setting: 60-bp whole probe
With: salmon DNA 0.4 mg/ml
Relative to: random background probes
Direction: higher = stronger binding
All sequences stand within: GCCTAGCAC … GTCTTGATTCGCTTGACGCTGCTG
Under “fitted relative affinity”, `GACGATTTCGGTTTCGAGACGTGCTAG` is recorded as 5.12 z-score.
`TTAGATTTCAGTGCCGATTAGTGCTAG`: “fitted relative affinity” 0.264 z-score.
`GACGAGTTCGGGACTGGAGACGTGCTA`: “fitted relative affinity” -0.582 z-score.
Under “fitted relative affinity”, `AAATTCTATTCTCTCAATTTGTGCTAG` is recorded as 2.25 z-score.
For `TGAGGTTTCGGACTGGGTTAGTGCTAG`, “fitted relative affinity” read 5.25 z-score.
`GAGGGACTGGGGACTGGGGACGTGCTA` — result for “fitted relative affinity”: -0.375 z-score.

Mixed results
The fold induction of `PhoQ, residues 284 288 289 292 302 303 ASSHFY` is reported as 22.8 (PhoP, residues 12 14 15 18 19 VQALL (Escherichia coli, UniProt P23836); Sort-seq, item: YFP reporter; E. coli; PhoQ-PhoP variant library, with: 10 µM Mg2+; relative to: high Mg2+ state, higher = stronger signaling).

Repeated from above (block 2):
With `GGGGGGTA` the E-score was 0.0687.
The E-score of `CGATGGTA` is reported as 0.0301.
`ATTGGAAG` gave an E-score of -0.127.
`CACCGGGA` has an E-score of 0.172.
